Measurements pooled from the literature.
Protocols differ between the studies behind these lines.
Cell line: human red blood cells

The HC50 of `CC[C@H](C)[C@H](NC(=O)[C@H](C)NC(=O)[C@H](CCCCN)NC(=O)[C@H](CCCCN)NC(=O)[C@@H](N)CCCNC(=N)N)C(=O)N[C@@H](CCCCN)C(=O)N[C@@H](CC(C)C)C(=O)N[C@H](C(=O)N[C@@H](CCCCN)C(=O)N[C@@H](CCCCN)C(=O)N[C@@H](CC(C)C)C(=O)N[C@H](C(=O)N[C@@H](CCCCN)C(=O)N[C@@H](CCCCN)C(=O)N[C@@H](CC(C)C)C(=O)N[C@@H](CCCCN)C(=O)N[C@@H](CCCCN)C(=O)N[C@@H](C)C(=O)N[C@@H](CC(C)C)C(=O)N[C@@H](CCCCN)C(=O)O)C(C)C)C(C)C` is reported as over 128 mg/L (human blood).
With `N=C(N)NCCC[C@H](NC(=O)[C@@H](N)CCCCN)C(=O)N[C@@H](Cc1c[nH]c2ccccc12)C(=O)N[C@@H](Cc1ccc(-c2ccccc2)cc1)C(=O)N[C@@H](CCC(N)=O)C(=O)N[C@@H](Cc1c[nH]c2ccccc12)C(=O)N[C@@H](Cc1ccc(-c2ccccc2)cc1)C(=O)N[C@@H](CCCCN)C(N)=O` the HC50 was over 200 µM (haemolysis; 1 h, 37 °C).
`CC[C@H](C)[C@H](NC(=O)[C@@H](CCCCN)NC(=O)[C@@H](CCCCN)NC(=O)[C@H](Cc1ccccc1)NC(=O)[C@H](CC(C)C)NC(=O)[C@@H](CCCCN)NC(=O)[C@H](Cc1c[nH]c2ccccc12)NC(=O)[C@H](CCCCN)NC(C)=O)C(=O)NCC(=O)N[C@@H](C)C(=O)N[C@H](C(=O)N[C@@H](CC(C)C)C(=O)N[C@H](CCCCN)C(=O)N[C@H](CCCCN)C(=O)N[C@@H](CC(C)C)C(N)=O)C(C)C` has a hemolysis of under 1% (64 µM, 1 h, 37 °C; baseline: Triton X-100).
For `CC[C@H](C)[C@H](NC(=O)[C@H](CCCCN)NC(=O)[C@H](CC(N)=O)NC(=O)[C@H](Cc1c[nH]c2ccccc12)NC(=O)[C@H](Cc1ccccc1)NC(=O)[C@H](CCCCN)NC(=O)[C@H](CCCNC(=N)N)NC(=O)[C@H](CC(C)C)NC(=O)[C@H](Cc1c[nH]c2ccccc12)NC(=O)[C@H](CCCCN)NC(=O)[C@H](CCCNC(=N)N)NC(=O)[C@H](CC(C)C)NC(=O)CNC(C)=O)C(=O)N[C@@H](CCCCN)C(=O)N[C@@H](CCCNC(=N)N)C(N)=O`, the HC50 was 156 µM (5 % erythrocyte suspension; 1 h, 37 °C).
`C[C@@H](O)[C@H](NC(=O)[C@H](CCCNC(=N)N)NC(=O)[C@H](CCCNC(=N)N)NC(=O)[C@H](CCCNC(=N)N)NC(=O)[C@@H]1CCCN1C(=O)[C@@H](N)CO)C(=O)N1CCC[C@H]1C(=O)N[C@@H](CO)C(=O)N1CCC[C@H]1C(=O)N[C@@H](CCCNC(=N)N)C(=O)N[C@@H](CCCNC(=N)N)C(=O)N[C@@H](CCCNC(=N)N)C(=O)N[C@@H](CCCNC(=N)N)C(=O)N[C@@H](CO)C(=O)N[C@@H](CCC(N)=O)C(=O)N[C@@H](CO)C(=O)N1CCC[C@H]1C(=O)N[C@@H](CCCNC(=N)N)C(=O)N[C@@H](CCCNC(=N)N)C(=O)N[C@@H](CCCNC(=N)N)C(N)=O` has an HC50 of over 100 µM (24 h, pH 7.4, 37 °C, 0.25% v/v erythrocytes).
`CC[C@H](C)[C@H](NC(=O)[C@H](Cc1ccccc1)NC(=O)[C@H](CC(=O)O)NC(=O)[C@H](CCCCN)NC(=O)[C@H](C)NC(=O)[C@H](CCCCN)NC(=O)[C@H](CC(N)=O)NC(=O)[C@H](CC(C)C)NC(=O)[C@H](Cc1c[nH]c2ccccc12)NC(=O)[C@H](CCC(=O)O)NC(=O)[C@H](CCCCN)NC(=O)[C@@H](NC(=O)CNC(=O)[C@H](C)N)[C@@H](C)O)C(=O)N[C@@H](CCCCN)C(=O)N[C@@H](CCC(=O)O)C(=O)N[C@@H](CCCCN)C(=O)NCC(=O)N[C@@H](CC(C)C)C(=O)N[C@@H](CCC(=O)O)C(=O)N[C@@H](CCSC)C(=O)N[C@@H](CC(C)C)C(=O)N[C@@H](CO)C(=O)N[C@@H](C)C(=O)N[C@@H](C)C(=O)N[C@@H](C)C(=O)N[C@@H](CC(N)=O)C(=O)N[C@@H](C)C(=O)N[C@@H](C)C(=O)N[C@@H](CC(C)C)C(=O)N[C@@H](CC(N)=O)C(=O)O` has an HC50 of over 150 µM (1 h).
With `CC[C@H](C)[C@H](NC(=O)[C@H](C)NC(=O)[C@H](CC(N)=O)NC(=O)[C@H](CCCNC(=N)N)NC(=O)[C@H](CCCNC(=N)N)NC(=O)[C@H](CC(N)=O)NC(=O)[C@H](CCCNC(=N)N)NC(=O)[C@H](CCCNC(=N)N)NC(=O)[C@H](C)NC(=O)[C@@H](NC(=O)[C@H](CC(C)C)NC(=O)[C@@H](NC(=O)[C@@H](NC(=O)[C@H](CS)NC(=O)[C@H](CCCCN)NC(=O)[C@@H](N)CCCNC(=N)N)C(C)C)[C@@H](C)CC)C(C)C)C(=O)N[C@H](C(=O)N[C@H](C(=O)N[C@@H](CC(C)C)C(=O)N[C@@H](CS)C(=O)N[C@@H](CCCNC(=N)N)C(=O)O)[C@@H](C)CC)C(C)C` the hemolysis was 7.52% (128 µg/mL, 3 h, 37 °C; baseline: Triton X-100).
`CC(C)C[C@H](NC(=O)[C@H](CCCCN)NC(=O)[C@H](CCCCNC(=O)[C@H](CC(C)C)NC(=O)[C@H](CCCCN)NC(=O)[C@H](CCCCNC(=O)[C@H](CC(C)C)NC(=O)[C@H](CCCCN)NC(=O)[C@H](CCCCNC(=O)[C@H](CC(C)C)NC(=O)[C@@H](N)CCCCN)NC(=O)[C@H](CC(C)C)NC(=O)[C@@H](N)CCCCN)NC(=O)[C@H](CC(C)C)NC(=O)[C@H](CCCCN)NC(=O)[C@H](CCCCNC(=O)[C@H](CC(C)C)NC(=O)[C@@H](N)CCCCN)NC(=O)[C@H](CC(C)C)NC(=O)[C@@H](N)CCCCN)NC(=O)[C@H](CC(C)C)NC(=O)[C@H](CCCCN)NC(=O)[C@H](CCCCNC(=O)[C@H](CC(C)C)NC(=O)[C@H](CCCCN)NC(=O)[C@H](CCCCNC(=O)[C@H](CC(C)C)NC(=O)[C@@H](N)CCCCN)NC(=O)[C@H](CC(C)C)NC(=O)[C@@H](N)CCCCN)NC(=O)[C@H](CC(C)C)NC(=O)[C@H](CCCCN)NC(=O)[C@H](CCCCNC(=O)[C@H](CC(C)C)NC(=O)[C@@H](N)CCCCN)NC(=O)[C@H](CC(C)C)NC(=O)[C@@H](N)CCCCN)C(N)=O`: “minimum haemolytic concentration” 1000 µg/mL (haemolysis; 4 h, pH 7.4, 25 °C).
For `CC[C@H](C)[C@H](NC(=O)[C@H](CCCN)NC(=O)[C@H](CC(N)=O)NC(=O)[C@H](Cc1c[nH]c2ccccc12)NC(=O)[C@H](Cc1ccccc1)NC(=O)[C@H](CCCN)NC(=O)[C@H](CCCCNC(=N)N)NC(=O)[C@H](CC(C)C)NC(=O)[C@H](Cc1c[nH]c2ccccc12)NC(=O)[C@H](CCCN)NC(=O)[C@H](CCCCNC(=N)N)NC(=O)[C@H](CC(C)C)NC(=O)CNC(C)=O)C(=O)N[C@@H](CCCN)C(=O)N[C@@H](CCCCNC(=N)N)C(N)=O`, the HC50 was 184 µM (5 % erythrocyte suspension; 1 h, 37 °C).
Under “minimal haemolytic concentration”, `CC(C)C[C@@H]1NC(=O)[C@H](CCCCN)NC(=O)CSC[C@@H](C(=O)N[C@@H](CCCCN)C(N)=O)NC(=O)[C@H](CCCCN)NC(=O)[C@H](CC(C)C)NC(=O)[C@H](CC(C)C)NC(=O)[C@@H]2CSCC(=O)N[C@@H](CCCCN)C(=O)N[C@@H](CC(C)C)C(=O)N[C@@H](CCCCN)C(=O)N[C@@H](CCCCNC(=O)[C@H](CCCCN)NC1=O)C(=O)N[C@@H](CCCCN)C(=O)N[C@@H](CC(C)C)C(=O)N[C@@H](CC(C)C)C(=O)N2` is recorded as 2000 µg/mL (4 h, pH 7.4, room temperature).
`CC[C@H](C)[C@H](NC(=O)[C@H](CCCNC(=N)N)NC(=O)[C@@H](NC(=O)[C@H](CO)NC(=O)[C@@H](NC(=O)[C@@H](NC(=O)[C@H](CS)NC(=O)[C@H](CCCCN)NC(=O)[C@@H](N)CCCNC(=N)N)C(C)C)[C@@H](C)CC)C(C)C)C(=O)N[C@@H](CCCNC(=N)N)C(=O)N[C@@H](CC(N)=O)C(=O)N[C@@H](CCCNC(=N)N)C(=O)N[C@@H](CCCNC(=N)N)C(=O)N[C@@H](C)C(=O)N[C@@H](CC(N)=O)C(=O)N[C@H](C(=O)N[C@@H](CCCCN)C(=O)N[C@H](C(=O)N[C@@H](CC(C)C)C(=O)N[C@@H](CS)C(=O)N[C@@H](CC(N)=O)C(=O)O)[C@@H](C)CC)[C@@H](C)CC` gave a hemolysis of 0.18% (128 µg/mL, 3 h, 37 °C; baseline: Triton X-100).

Some of these lines once more:
Under “minimal haemolytic concentration”, `CC(C)C[C@@H]1NC(=O)[C@H](CCCCN)NC(=O)CSC[C@@H](C(=O)N[C@@H](CCCCN)C(N)=O)NC(=O)[C@H](CCCCN)NC(=O)[C@H](CC(C)C)NC(=O)[C@H](CC(C)C)NC(=O)[C@@H]2CSCC(=O)N[C@@H](CCCCN)C(=O)N[C@@H](CC(C)C)C(=O)N[C@@H](CCCCN)C(=O)N[C@@H](CCCCNC(=O)[C@H](CCCCN)NC1=O)C(=O)N[C@@H](CCCCN)C(=O)N[C@@H](CC(C)C)C(=O)N[C@@H](CC(C)C)C(=O)N2` is recorded as 2000 µg/mL (4 h, pH 7.4, room temperature).
For `CC[C@H](C)[C@H](NC(=O)[C@H](CCCN)NC(=O)[C@H](CC(N)=O)NC(=O)[C@H](Cc1c[nH]c2ccccc12)NC(=O)[C@H](Cc1ccccc1)NC(=O)[C@H](CCCN)NC(=O)[C@H](CCCCNC(=N)N)NC(=O)[C@H](CC(C)C)NC(=O)[C@H](Cc1c[nH]c2ccccc12)NC(=O)[C@H](CCCN)NC(=O)[C@H](CCCCNC(=N)N)NC(=O)[C@H](CC(C)C)NC(=O)CNC(C)=O)C(=O)N[C@@H](CCCN)C(=O)N[C@@H](CCCCNC(=N)N)C(N)=O`, the HC50 was 184 µM (5 % erythrocyte suspension; 1 h, 37 °C).
